Experimental data collected from several papers.
Numbered parts are unrelated; each lists some results of a single study.

Block 1
Target: RNA binding protein fox-1 homolog 2, RRM domain, GST-SBP tag (RBFOX2, Homo sapiens, UniProt O43251-10, residues 100-194)
Technique: RNA Bind-n-Seq
Molecule type: RNA
Medium: in vitro
Tested at: 365 nM
Notes: natural RNA segment, single round, ends assumed
Baseline: no-protein control
Direction: higher = stronger binding
Quantity: RBNS enrichment (R)
Constant ends, left off below: GGGAGUUCUACAGUCCGACGAUC … UGGAAUUCUCGGGUGCCAA
Construct (chain): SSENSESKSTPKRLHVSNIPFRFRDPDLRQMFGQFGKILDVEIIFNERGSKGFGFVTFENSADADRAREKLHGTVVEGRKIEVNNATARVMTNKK
UGUGAGGUCUUGCACAAGCCACGUGGGGCACCUUGGCUUCCCGGCAGGAGGUGGACACCCAGCCAGAGGCCUGGCUCAAGGUGACCUCACCUUCACCAUGGGCUUCCUGG: 0.371
GAACUUUUUUGUAAUAUACAUGUAUGAAUUGUUCAUCGAGUUUUUAUAUUAAUUUUAAUUUGCUGCUAAGCAAAGACUAGGGACAGGCAAAGAUAAUUUAUGGCAAAGUG: 0.614
ACCAGGAGACUCGGGCUUCGUUUCUUCAUGGCAAGUCUUCAGAGUUAAUUUUCUUUAGAUGUGUAAAACUGUUCAUUGUAGUGUAAAUGUCAGGGUCUGUUCUAGUCUAU: 0.387
CUGGGAGGGAAUGAGGUUCCACUCAUUGUCUCGUGACUUCCAUCCCUGCUGAACGGGGCUGCAAGGCCAAGGCUCCUUAAGGGAGGUCCUUACCUCCAAUCCAGUUAGAG: 0.32
AUUCUUUGUGUAUUGAUUACUAUAUAUAGACAUCUAAGAGGUUAAUUAUUGAUCAAGAAGACAGGUUUGUUUCCUAAUUAGCACACCCUGACUUCACUCAUUUGCUUUCU: 0.747
AAUUGUAUGUUUAAUCUGUUUCUGAAAUCAUUUUGCAAUAUAUGGAAAUAGAGUAGCAGUUGAUAUUUCUAAAUUGUGACCAUUGUCCGAGAUUGCUUUGAGAACUGGUA: 0.948
UACUUUCCUGCAAAAUUUUCUUCAAAGCAACAAGUCCUAGGAGCACACAAAGCAACCCAAAGGCUUUUCCCUGGAAAAGCUCUUUCUUACCUAAAGAUAAAACCAAUUCA: 0.321
UCAUGUCCGCCUAAUUGAUGUAGUAUGAAACCCUGCAUCUUUAAGGAAAAGAUUAAAAUAGUAAAAUAAAAGUAUUUAAACUUUCCUGAUAUUUAUGUACAUAUUAAGAU: 0.488
UUUUUUGUUCAUUUUCUUCUACCAAGUAGAGGUUUAUGCCCUCAGAACUAAACUAGUAAAAAUAUCUGAACAAAAAACCUUUCGUUGUUGGCAUAAAAAUGUGAUACACU: 0.382
CGUACCCACACUGGCUGUAGCCACUUCAGUCCAUCUGCCCUCCAGAGGAGGGGUUUCUUCCUGAUUUUUAGCAGGUUUAGAGGCUGCAGCUUGAGCUACAAUCAGGAGGG: 0.495

Block 2
Target: Histone acetyltransferase KAT6A, winged helix 2, GST fusion (KAT6A, Homo sapiens, UniProt Q92794, residues 85-181)
Technique: protein binding microarray
Molecule type: double-stranded DNA, one strand shown
Medium: in vitro
Tested at: not given
Notes: 8-mer, flanks averaged, mean of 2 arrays, mostly near background
Baseline: not given
Direction: higher = stronger binding
Quantity: E-score
Target sequence (chain): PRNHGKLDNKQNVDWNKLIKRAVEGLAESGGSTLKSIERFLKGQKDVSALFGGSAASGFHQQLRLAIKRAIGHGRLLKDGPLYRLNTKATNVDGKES
CAAATTAG: -0.0811
TTGGAAAA: -0.0268
CGACTTTC: -0.0965
AAAGGCAT: 0.194
ACGTGATA: -0.232
AACCGTGT: -0.0689
GCGATCGA: 0.128
AGTTCGTG: 0.114
AGTGCGGC: 0.0714

Block 3
Target: Centromere-binding protein 1, full length, His-tagged (CBF1, Saccharomyces cerevisiae, UniProt P17106, residues 1-351)
UniProt P17106, sequence (whole entry, looked up): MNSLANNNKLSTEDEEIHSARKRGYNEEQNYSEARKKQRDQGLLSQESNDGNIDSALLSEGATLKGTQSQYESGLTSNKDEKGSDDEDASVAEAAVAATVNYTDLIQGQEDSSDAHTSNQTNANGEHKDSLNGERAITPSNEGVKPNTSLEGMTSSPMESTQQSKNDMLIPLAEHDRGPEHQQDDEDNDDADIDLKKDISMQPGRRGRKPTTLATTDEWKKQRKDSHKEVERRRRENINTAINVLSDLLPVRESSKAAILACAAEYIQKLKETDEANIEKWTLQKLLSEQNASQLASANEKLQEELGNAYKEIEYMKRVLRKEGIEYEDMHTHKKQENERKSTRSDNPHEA
Technique: competition protein-binding microarray
Molecule type: double-stranded DNA, one strand shown
Medium: in vitro
Tested at: 2 µM
Notes: whole 60-bp probe, lowest competitor level
Added: Pho4 competitor, 0.05 µM
Direction: higher = stronger binding
Quantity: fluorescence intensity
Constant ends, left off below: … GTCTTGATTCGCTTGACGCTGCTG
AAAGCGGTAATTTGCCGGGTGGGTGCAGATATCTAT: 72.5 a.u.
TGGGAATCCGCTTGGCGCGTGATGGAGCCAATGAAC: 155 a.u.
GCATATTGAAACCATCACGGGAACGAGAAGAATGGC: 316 a.u.
TTTCATAGCGGGCCAAGCGTGGGTAAAGTGCTGGAC: 63.1 a.u.
GAGTGCTTTGTTTCTTCCGTGATGGTTTAATGGTCA: 75.5 a.u.
GTCTTGTCTCATTGACAAGTGGGTGTCCCCACTTCA: 77.6 a.u.
CATACCCAACCTTGGTCCGTGGGTGAAGATATTTGT: 59.9 a.u.
CTTCTGTAAATTTGCGTCGTGGGTGGACGCGCCCCG: 81.7 a.u.

Other studies, line by line
PhoQ, residues 284 288 289 292 302 303 GANMMA
fold induction (PhoP, residues 12 14 15 18 19 YHFSH (Escherichia coli, UniProt P23836); Sort-seq, measured: YFP reporter; E. coli; PhoQ-PhoP variant library, added: 10 µM Mg2+; baseline: high Mg2+ state, higher = stronger signaling): 5.41

For quick reference, copied from above (block 3):
TTTCATAGCGGGCCAAGCGTGGGTAAAGTGCTGGAC: 63.1 a.u.
GAGTGCTTTGTTTCTTCCGTGATGGTTTAATGGTCA: 75.5 a.u.
